Assay results of several laboratories.
± marks the error that the study gave.

| Structure (SMILES) | assay | test system | setting | scale | measurement | result |
| --- | --- | --- | --- | --- | --- | --- |
| COc1ccc(-c2c(-c3ccc(C#N)c(F)c3)nc(N3CCC(N)CC3)n(C)c2=O)cc1F | measured: Neutropenia | human patients | oral, dose not given, dose escalation, NG |  | serious adverse event incidence | 2% |
| COc1ccnc(C(=O)N[C@H]2COC(=O)[C@H](Cc3ccccc3)[C@@H](OC(=O)C(C)C)[C@H](C)OC2=O)c1OCOC(=O)C(C)C |  | sediment, Swiss lake sand | 20 °C, aerobic dark |  | DT50 | 3.3 days |
| O=C(Nc1ccc2c(c1)B(O)OC2)c1ccc(Oc2ccccc2)cc1 | PAMPA |  | 200 µM, 5 h, pH 7.4 |  | membrane retention | 20.9% |
| N[C@@H]1c2ccccc2OC12CCN(c1cnc3c(N4CCCc5ncccc54)n[nH]c3n1)CC2 | measured: Constipation | human advanced or metastatic solid tumours | oral, 60 mg once daily, phase Ia pooled cohort |  | patients with treatment-emergent adverse event | 28% |
| Nc1ncnc2c1ncn2[C@@H]1O[C@@H]2COP(=O)([S-])O[C@@H]3[C@H](O)[C@@H](COP([O-])(=S)O[C@H]2[C@H]1O)O[C@H]3n1cnc2c(N)ncnc21.[Na+].[Na+] (stereo partly drawn) |  | non-tumor-bearing mice, blood | intravenous, 1 mg/kg, toxicity study |  | neutrophil percentage | 16 ± 7.89% |
| COc1cccc(Oc2ccccc2NC(=O)CNC(=O)c2cccc3ccccc23)c1 |  | esterase-deficient SCID mice, male | oral, 40 mg/kg/day, 14 days, toxicity study |  | total bilirubin | 0.1 mg/dL |
| O=C(O)C(O)(c1cccs1)c1cccs1 | measured: metabolite | human, plasma | oral, 2 mg once daily, 5 days, median |  | dose-normalised free Cmax | 0.0115 (ng/mL)/mg |
| COc1ccc([C@@H](O)c2cc(-c3ncnc4cc(N5CCOCC5)ccc34)c(F)cc2Cl)nn1 |  | patients, advanced solid tumours | oral, 250 mg twice daily, treatment-emergent, added: avelumab |  | gastrointestinal disorders incidence | 4% |
| O=C(Nc1ccccc1)C1CCN(C(=O)Oc2cccnc2)CC1 | Bond-Lader VAS | healthy women | oral, 100 mg | relative to: pre-dose baseline, direction not given | change in withdrawn–gregarious score | 6.8 |
| N=C(N)NCCC[C@@H](NC(=O)[C@@H](N)Cc1ccccc1)C(=O)N[C@@H](Cc1ccccc1)C(=O)N[C@@H](CCCCN)C(N)=O |  | early Huntington's disease patients, urine | subcutaneous, 25 mg, 5.833 h, mean |  | fraction of dose excreted in urine | 31% |
| CC(=O)c1c(C)c2cnc(Nc3ccc(C4CCN(CCS(C)(=O)=O)CC4)cn3)nc2n(C2CCCC2)c1=O |  | beagle dog, both sexes | oral, 4 weeks, repeated dosing |  | maximum tolerated dose | 6 mg/kg |
| Cc1cccc(Cn2nc(C3CC3)c3c(NC(=O)c4cnc5cc(OCCN6CCN(C)CC6)ccn45)cccc32)n1 | measured: Hypokalemia | human platinum-resistant ovarian cancer | oral, dose not given, all-causality |  | adverse events incidence | 9.1% |
| O=C1Nc2cc3[nH]nc(-c4ccncc4)c3cc2CN1Cc1ccccc1 | measured: vitreous floaters | patients with advanced solid tumours | intravenous, dose not given |  | patients with TEAE | 11% |
| Oc1c(F)ccc(Cc2ccccc2)c1F |  | human plasma |  |  | fraction unbound | 0.01 |
| O=S(=O)(Nc1ccccc1)c1ccc(NC(=S)Nc2ccccc2)cc1 |  | female mice, thymus | oral, 5 mg/kg daily 14 days | relative to: body weight | relative organ weight | 0.35% |
| C[C@H]1CN(C(=O)CC#N)[C@]12CCN(c1ncnc3[nH]ccc13)C2 |  | minipig, male and female | dermal, 1 months, highest dose given |  | NOAEL | 12 mg/kg |
| O=c1ccc2ncc(=O)n3c2n1C[C@H]3CN1CCC(NCc2cc3c(cn2)OCCC3)CC1 |  | healthy human volunteers, urine | oral, dose not given, arithmetic mean, added: rifampicin |  | AUC(0-24) | 1630 µg·h/mL |
| CO[C@H]1C[C@@H]2CC[C@@H](C)[C@@](O)(O2)C(=O)C(=O)N2CCCC[C@H]2C(=O)O[C@H]([C@H](C)C[C@@H]2CC[C@@H](OC(=O)NCCOCCOCCOCCOCCOCCOCCOCCOCCC(=O)N3CCc4cc(Cn5nc(-c6ccc7oc(N)nc7c6)c6c(N)ncnc65)ccc4C3)[C@H](OC)C2)C[C@@H](O)[C@H](C)/C=C(\C)[C@@H](O)[C@@H](OC)C(=O)[C@H](C)C[C@H](C)/C=C/C=C/C=C/1C |  | patients with advanced solid tumours | intravenous, 6 mg weekly, grade 3 or higher |  | decreased appetite leading to dose reduction | 0% |

| Structure (SMILES) | assay | test system | setting | scale | measurement | result |
| --- | --- | --- | --- | --- | --- | --- |
| CCN1[C@@H](C(=O)NC23CCC(C(=O)O)(CC2)CC3)[C@H](c2cccc(Cl)c2F)[C@]2(C(=O)Nc3cc(Cl)ccc32)C12CCCCC2 |  | patients with advanced solid tumours | oral, 150 mg |  | Neutropenia incidence | 62.5% |
| COc1cc2c(Oc3ccc4[nH]c(C)cc4c3F)ccnc2cc1OCC1(N)CC1 |  | paediatric recurrent refractory sarcoma | 8 mg |  | grade 1 or 2 ALP elevation | 0% |
| CC(C)[C@H](N)C(=O)NCCCS(=O)(=O)O |  | human, plasma | oral, 265 mg twice daily days 2-6, once daily day 7, day 7, fed, tablet |  | Cmax | 6460 ng/mL |
| COc1ccc2nc3cc(Cl)ccc3c(Nc3cc(CN4CCCC4)c(O)c(CN4CCCC4)c3)c2n1 |  | mouse, blood | intraperitoneal, 57 mg/kg |  | platelet count | 92.5 10⁹/L |
| Cc1cc(C)c(CNC(=O)c2cc(Cl)c3c(c2C)O[C@@](C)([C@H]2CC[C@H](N(C)C)CC2)O3)c(=O)[nH]1 |  | relapsed/refractory NHL patients | dose not given, trial, safety set, treatment-related TEAE grade 5 |  | incidence of INR increased | 0% |
| O=C(O)C(F)(F)C(F)(F)C(F)(F)C(F)(F)C(F)(F)C(F)(F)C(F)(F)F | two-compartment model | human, plasma | oral, 50 mg weekly |  | AUC | 4840 µg·h/mL |
| CCCCCc1cc(O)c(C/C=C(\C)CCC=C(C)C)c(O)c1C(=O)O | LC-MS/MS | Scn1a+/− mice, both sexes, plasma | intraperitoneal, 10 mg/kg, after hyperthermia protocol |  | plasma concentration | 13000 ± 1000 ng/mL |
| CCC[C@@](N)(CO)CCc1ccc(OCCCCCC(C)C)cc1 |  | dog, male hounds, plasma | oral capsule, 20 mg/kg, median |  | half-life | 21.6 h |
| CCc1ccc(CC/C=C/c2ccc3c(c2)C(=O)CC3)cc1 |  | Sprague-Dawley rat, male, serum | oral, 30 mg/kg/day, 14 days |  | creatinine | 23.3 µM |
| C[C@@H](NC(=O)N1C(=O)[C@H](Cc2ccnc(N)c2)[C@H]1C(=O)O)C1CCCCC1 |  | healthy adult Chinese volunteers | continuous intravenous infusion, 0.3 mg/kg/h, 5-day infusion, CTCAE 5.0 grading |  | drug-related abnormal liver function | 12.5% |
| CC(C)C[C@H](NC(=O)[C@H](CCCCN)NC(=O)OCC1c2ccccc2-c2ccccc21)C(=O)N[C@H](C(=O)N[C@@H](Cc1ccccc1)C(=O)N[C@@H](Cc1ccccc1)C(=O)N[C@@H](CCCCN)C(=O)NCC(=O)N[C@@H](Cc1ccccc1)C(=O)N[C@@H](C)C(=O)N[C@@H](Cc1c[nH]c2ccccc12)C(=O)N[C@@H](CC(N)=O)C(=O)N[C@H](C(=O)N[C@H]1CSSC[C@@H](C(=O)N[C@@H](Cc2c[nH]cn2)C(=O)N[C@@H](CCCNC(=N)N)C(=O)N[C@@H](CCCNC(=N)N)C(=O)N[C@@H](C)C(=O)N[C@@H](CC(N)=O)C(N)=O)NC(=O)[C@H](C(C)C)NC(=O)[C@H](CCCNC(=N)N)NC(=O)[C@H](C(C)C)NC(=O)CNC(=O)[C@H](CC(N)=O)NC(=O)[C@H](CCCNC(=N)N)NC(=O)[C@H](Cc2ccc(O)cc2)NC(=O)[C@H](C(C)C)NC1=O)C(C)C)C(C)C |  | ICR mouse | ip, 5 mg/kg | direction not given | lachrymation score | 0 |
| CN1CC[C@@H](c2c(O)cc(O)c3c(=O)cc(-c4ccc(C(F)(F)F)cc4Cl)oc23)[C@@H]1CO | measured: Diarrhea | AML | oral, 200 mg, intermittent dosing |  | patients with adverse event | 50% |
| CCC(CC)COC(=O)[C@H](C)N[P@](=O)(OC[C@H]1O[C@@](C#N)(c2ccc3c(N)ncnn23)[C@H](O)[C@@H]1O)Oc1ccccc1 |  | human cells | 48 (unit not given) |  | CC50 | > 10 µM |
| CC[C@H](C)[C@H](NC(=O)[C@H](Cc1ccccc1)NC(=O)[C@H](CCC(=O)O)NC(=O)[C@H](CCCNC(=N)N)NC(=O)[C@H](C)NC(=O)[C@H](C)NC(=O)[C@H](CCC(N)=O)NC(=O)[C@H](CCC(=O)O)NC(=O)[C@H](CCC(=O)O)NC(=O)[C@H](CC(C)C)NC(=O)[C@H](Cc1ccc(O)cc1)NC(=O)[C@H](CO)NC(=O)[C@H](CO)NC(=O)[C@@H](NC(=O)[C@H](CC(=O)O)NC(=O)[C@H](CO)NC(=O)[C@@H](NC(=O)[C@H](Cc1ccccc1)NC(=O)[C@@H](NC(=O)CNC(=O)[C@H](CCC(=O)O)NC(=O)[C@H](C)NC(=O)CCc1cnc[nH]1)[C@@H](C)O)[C@@H](C)O)C(C)C)C(=O)N[C@@H](C)C(=O)N[C@@H](Cc1c[nH]c2ccccc12)C(=O)N[C@@H](CC(C)C)C(=O)N[C@H](C(=O)N[C@@H](CCCNC(=N)N)C(=O)NCC(=O)N[C@@H](CCCNC(=N)N)C(=O)N[C@@H](CCCCNC(=O)COCCOCCNC(=O)COCCOCCNC(=O)CC[C@H](NC(=O)CCCCCCCCCCCCCCCCC(=O)O)C(=O)O)C(=O)NCC(=O)NCC(=O)N[C@@H](CO)C(=O)N[C@@H](CCSC)C(=O)N[C@H](C(=O)N[C@@H](CCCCNc1c(NCCCCCN(O)C(=O)CCC(=O)NCCCCCN(O)C(=O)CCC(=O)NCCCCCN(O)C(C)=O)c(=O)c1=O)C(=O)O)C(C)C)C(C)C [zirconium-89 labelled] | ex vivo gamma counting | male Sprague-Dawley rats, lung | intravenous, 1 nmol, 72 h, mean of 3 animals |  | tissue uptake | 0.77 %ID/g |
| C[C@]1(CO)Cc2ncn(-c3ccc(C#N)c(Cl)c3)c2C(=O)O1 |  | human, plasma | 0.7 mg single dose, geometric mean |  | AUC(0-inf) | 0.12 µM·h |
| CC(C)CC(=O)OC[C@H]1O[C@@](C#N)(c2ccc3c(N)ncnn23)[C@H](O)[C@@H]1O | plasma protein binding | monkey plasma | 90 µM, time not given |  | recovery | 98.3% |
| O=C(O)CNCP(=O)(O)O |  | whole cow milk | 2000 nM nominal |  | dose fraction in skim milk | 99% |
| CC(C)(c1ccccc1)c1cc(-n2nc3ccccc3n2)c(O)c(C(C)(C)c2ccccc2)c1 | exposure assessment | human, age 2-3 years | concentration not given, spray sunscreen, 95th percentile |  | daily dermal uptake, percentile | 74.4 ng/kg body weight/day |
